Assay results pooled from the literature.
Every numbered part comes from another study and shows a few of its results, in no order. Changes are numbered by the printed parent chain.

Sample 1 — method: universal PBM; molecule type: double-stranded DNA, one strand shown; matrix: in vitro; concentration: not given; reading: higher = stronger binding
Target: Sal-like protein 4, full length isoform B (SALL4, Homo sapiens, UniProt Q9UJQ4-2, residues 1-616)
Notes: 8-mer, flanks averaged, mean of replicates
Sequence | E-score
AGGTGTCA | 0.0788
AATGTTCC | 0.0463
AAATGTCC | 0.0961
ACTGTACG | 0.0404
CCCCCTCC | -0.325
ACTCCGCC | -0.218
GATGGAGA | -0.0743
CTCGCTCA | -0.0659
CCCCAGGG | -0.403
CCCTCGAA | -0.0721
CCAGAACC | -0.128
CCGGTTAA | -0.177
AAGTGTTA | 0.225
GAGCTGGA | -0.278
TACCCCCA | 0.0329
AAATACTG | 0.114
ACTCGCAA | 0.123
AGGTACAG | 0.0395
GTAAGCGA | 0.0246
ACAAATGA | 0.308
GCAGCCGC | -0.289
GCTACACA | 0.1
AAAAAGCC | -0.0334
GAATGCGC | -0.0875
GCCGACAC | -0.225

Sample 2 — method: protein binding microarray; molecule type: double-stranded DNA, one strand shown; matrix: in vitro; concentration: not given; reference: not given; reading: higher = stronger binding
Target: Histone acetyltransferase KAT6A, both winged helices, GST fusion (KAT6A, Homo sapiens, UniProt Q92794, residues 1-181)
Notes: 8-mer, flanks averaged, mean of 2 arrays, mostly near background
Construct (chain): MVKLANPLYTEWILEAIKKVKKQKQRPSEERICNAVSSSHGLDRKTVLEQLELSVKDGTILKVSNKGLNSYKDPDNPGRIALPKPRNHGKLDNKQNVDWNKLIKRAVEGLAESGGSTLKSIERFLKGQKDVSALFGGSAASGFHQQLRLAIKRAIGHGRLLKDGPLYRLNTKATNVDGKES
Sequence | E-score
CAGCTACG | 0.00815
CTATGCTA | -0.00136
AGGCAGAT | -0.17
ACGTAAGC | 0.0134
TCCCCAGA | -0.289
CGTTAAGA | -0.0219
AGACAGGA | -0.326
ACAGATGC | -0.0347
CCATCCCG | 0.103
TAACATGA | -0.049
AACTTCCA | -0.169
CAACTCTC | -0.164
CCTCCAAC | -0.205
GGGGGCAC | -0.163
AACCTCAT | -0.122
GATGGACA | 0.0111
CGCTGCAA | 0.21
AAAACTTT | -0.0781
CCAACAGC | -0.0892

Sample 3 — method: DHFR PCA, deep sequencing; matrix: yeast; added: (+)-ABA 58 µM; reference: wild-type fitted maximum; reading: higher = stronger binding
Target: ABI1, truncated, D143A, DHFR fusion (Arabidopsis thaliana)
Notes: methotrexate growth selection, single substitutions
Parent: PYL1, truncated, DHFR fusion (Arabidopsis thaliana); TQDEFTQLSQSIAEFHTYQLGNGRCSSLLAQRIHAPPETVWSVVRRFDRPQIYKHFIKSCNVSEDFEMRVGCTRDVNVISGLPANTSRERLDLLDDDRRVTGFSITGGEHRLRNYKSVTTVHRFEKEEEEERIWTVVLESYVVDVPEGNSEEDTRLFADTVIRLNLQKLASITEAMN
Substitution | relative binding score [%]
S27V | -9.22
E14N | 62.2
R155M | 74.6
N22L | 87.4
I33L | 14.9
L29D | -13.5
Q19A | 87.6
T135K | 1.27
H34Q | 90.8
N22Y | 86.2
F157D | 7.63
G23P | 43
E125T | 91.1
N61E | 90.4

Sample 4 — method: protein-binding microarray; molecule type: double-stranded DNA, one strand shown; matrix: in vitro; concentration: not given; reading: higher = stronger binding
Target: Myc proto-oncogene protein, bHLH-zipper, MAX partner unstated (MYC, Homo sapiens, UniProt P01106, residues 368-449)
UniProt P01106, sequence (368-449, looked up): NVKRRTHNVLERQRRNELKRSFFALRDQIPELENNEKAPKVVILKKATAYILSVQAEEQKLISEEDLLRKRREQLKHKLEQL
Notes: k-mer, scored over probes, only values ≥0.25
Sequence | E-score
CATGCATG | 0.438
CCGAGGAA | 0.251
CACACGAG | 0.393
CGTGTGGA | 0.296
ACATGGAC | 0.33
CACATGTA | 0.453
ACGTGCCA | 0.431
ACGTGATG | 0.4
CACCGTGC | 0.282
TCATGGCA | 0.275
CATGACCA | 0.265
AGGCGCAT | 0.28
GTGCTTTA | 0.259
CGATCACG | 0.283
GCATGGGA | 0.403
ACTCGTGC | 0.379

Sample 5 — method: competition protein-binding microarray; molecule type: double-stranded DNA, one strand shown; matrix: in vitro; concentration: 2 µM; added: Pho4 competitor, 0.05 µM; reading: higher = stronger binding; constant ends, left off below: … GTCTTGATTCGCTTGACGCTGCTG
Target: Centromere-binding protein 1, full length, His-tagged (CBF1, Saccharomyces cerevisiae, UniProt P17106, residues 1-351)
UniProt P17106, sequence (whole entry, looked up): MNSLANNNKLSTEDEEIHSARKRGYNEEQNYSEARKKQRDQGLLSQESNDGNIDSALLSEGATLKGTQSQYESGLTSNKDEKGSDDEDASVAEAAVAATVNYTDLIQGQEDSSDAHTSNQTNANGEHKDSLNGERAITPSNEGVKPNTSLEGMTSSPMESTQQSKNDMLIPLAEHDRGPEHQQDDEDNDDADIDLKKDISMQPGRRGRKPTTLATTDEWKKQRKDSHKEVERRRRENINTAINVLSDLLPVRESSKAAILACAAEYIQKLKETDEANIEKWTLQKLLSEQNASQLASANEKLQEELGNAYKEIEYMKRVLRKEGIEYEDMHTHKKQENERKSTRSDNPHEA
Notes: whole 60-bp probe, lowest competitor level
Sequence | fluorescence intensity
AAATCATTGATTTCCAATCTTTAAAAAATCCATCCA | 89.2 a.u.
GAAAGCCTGGTAGGACACGTGATGGCTTGTTCGCCA | 3870 a.u.
TGTAGAGCAAACCGTAGTGGTAATAGTGGTTGTTGA | 60.4 a.u.
ATGAAACCACTTTAGCACGATGAAATAGCAATATGT | 72.5 a.u.
CGTCCTAGCGATTGAGCAGTGGGTGCCATGAGGAAG | 61 a.u.
AAAGCGGTAATTTGAGTTGTGGGTGCAGATATCTAT | 90.6 a.u.
CGCGAACATCGGTCCCACGCTGATAGTCTCCACTAT | 89 a.u.
CTGAACTCGCCGCCTCACCTGCCACTACGTCTTCCG | 60.5 a.u.
TGCAAGATCAAGTGCCGCGTGTCCTTATTGTTGTCC | 101 a.u.
CATACCCAACCTTTTCACGTGCACTAAGATATTTGT | 1430 a.u.
TGCGCAACAACTTGACGAGTGGGTGTATGTCTAGAA | 68.8 a.u.
GACTTCTCCAAAGACAACGTGCTTTCCGTCCAACCA | 134 a.u.
TCAATTCTCCAGTACGGCGTGGGTACAGAACATGGC | 72.1 a.u.
CTTCTGTAAATTTTTCACGTGCGTTGACGCGCCCCG | 687 a.u.
TGTGTAACAGAACCGGACGTGCTTTAGGCTGATGAA | 68 a.u.
CGGGGTTAAGTTTGTCACCTCACTTGCTTGCAGCAG | 68.3 a.u.
TGATTTCTCTATTTTATATTGCCTATTATTTTTTCA | 75.3 a.u.
TCACTCCTGATGAAGCTCGTGTGAAGGAATTCAACC | 104 a.u.

Sample 6 — method: RNA Bind-n-Seq; molecule type: RNA; matrix: in vitro; concentration: 365 nM; reference: no-protein control; reading: higher = stronger binding
Target: RNA binding protein fox-1 homolog 2, RRM domain, GST-SBP tag (RBFOX2, Homo sapiens, UniProt O43251-10, residues 100-194)
Notes: natural RNA segment, single round, ends assumed
Constant ends, left off below: GGGAGUUCUACAGUCCGACGAUC … UGGAAUUCUCGGGUGCCAA
Residues (chain): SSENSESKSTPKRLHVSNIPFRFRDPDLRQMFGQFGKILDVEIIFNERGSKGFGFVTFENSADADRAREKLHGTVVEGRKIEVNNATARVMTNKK
Sequence | RBNS enrichment (R)
UGAUGAAGAGAGAGAGGGCCUGCUGGAGAGCAUAGGGUCUGGAACACCAGGCUGAGGUCCUGAUCAGCUUCAAGGAGUAUGCAGGGAGCUGGGCUUCCAGAAAAUGAACA | 0.648
CCAGUCUGAUCUACAUUGUGAGUUCCAAGACAGCCAAAACUACAUAAUGAGACCCUGUCUCAAAAAAAGAAAAAAAAAUUUUUUGAAAUUUAGUAGGUUUUCACAAUUUU | 0.717
CUCGCACAGGGCAGGAUGCUGAACGGGCUACAUUAAAAACAAACCUCUUUCUCUCUCUAUUUAUAAAUGAGAACUGUUGGACGACACCUUUGACAUAUCAGCCAAUACCA | 0.404
GGGCUUUUUUAGGUUUUGGGGCAUUUGUUUUUUGUAAAUAAGAUGAUUAUGCUUUGUGGCUAUCCAUCAACAUAAGUAAAAAAAAAAAAAAAACACUUCAACUCCCUCCC | 0.455
GAUAAUACAAUCUACUUACACACAUGAAUUUCUUAAAAAAAUCAAUUUAAUGCCCUAACUCUCUUAUUAAGGAGAAAUAGAAAAGAAGAAAUUUAUAAUGAAAAGAAGAU | 0.517
CACUGCUGCUGCCCCGUCGGCAUGUGCGGCGGCUACCUGAGCUGACCCCUGCUGAGCGUGAUGGUCUAGCCUCCAUCAUGAAGAAGCUCUUGACCAAGUAUGACAACCUC | 0.379
ACAGCCAUGUCUGCGACGAUCAGCCUCUGGAGGCUGAAUGGGAAGCAGAGCUUUCGACCCACUCUAGUGGCUGGGCGGGCGUGGGGUAUCUAGCAGGCUGGAGUGAAGGG | 0.653
UGCUCAGUGGGCCAUCCAUCCAACCUUUAACUUGAGAGCCUUUCCUGCAGCCUGGAGGUGUCCAAGGAUUCCCGUACAGUGACUGUGUCUCACCGCCCACAACCCUAUCG | 0.646
GGGCUGCUUCUCCCUAACCAUCCAUUGUGCAGACUUCUCAUCUAAAAAGGUUGGUGGCUUUUGCUUGGGAUCAGUGCUCUGCUAACGCCCUUGCUGGUCUCUCCACACAU | 0.248
ACCCUGUUUUAUAAACCUGUGCCUGUCUAUGGAGAAGGUUUUAAUUCUCCUUGUUAUUCAUUUUGGGCUUUUUGAUGAAACCACCAGGGCAUCACAUAUACUAAGCAUGU | 7.23
UCCCAACCCCUUUCUGUUAAAGCCUCCUAAGUGGUCAUUACUACUUUGUAGACAUUGGUAUUUGUUUUACUUAGCAAUAAGAAUGGUGAAAUUCAAAUUCUCGUUUAGAA | 0.519
CUUGUGCUAUGCACGGGGUGUCUGAGCGGUGCCCAGGCCGUUCCACACAGACACCUCAGUGUUGGACCUGUGAUGAAAGUUUCUGAGAAAUACUUUUGUUCCAAACCAUU | 0.325
